Measurements of several laboratories.
Compare with care: the assays were run in different laboratories. Numbers after ± are the reported error.

SMILES | system | setting | AUC
Cn1cnc2c(F)c(Nc3ccc(Br)cc3Cl)c(C(=O)NOCCO)cc21 | healthy subjects, plasma | oral, 50 mg single dose, LS mean | 2620 ng·h/mL
Cc1cc(Nc2cc(N3CCN(C)CC3)nc(Sc3ccc(NC(=O)C4CC4)cc3)n2)[nH]n1 | patients, plasma | continuous intravenous infusion, 8 to 96 mg/m2/h, 24 h infusion, mean across doses | 6.4 to 167 µM·h
O=C1CCc2ccc(OCCCCN3CCN(c4cccc(Cl)c4Cl)CC3)cc2N1 | healthy Japanese men, CYP2D6 IM, plasma | oral, 3 mg aripiprazole single, added: fluvoxamine 100 mg/day | 2530 ± 620 ng·h/mL
O=C1CC[C@@]2(O)[C@H]3Cc4ccc(O)c5c4[C@@]2(CCN3CC2CC2)[C@H]1O5 | hairless guinea pig, plasma | topical, 0.5 mL of 16% gel | 259 ± 179 ng·h/mL
COc1cc2c(cc1OC)CN(CCc1ccc(NC(=O)c3cc(OC)c(OC)cc3NC(=O)c3cnc4ccccc4c3)cc1)CC2 | human, plasma | intravenous infusion, 4 mg/kg, up to 24 h after infusion end | 14500 ng·h/mL
CN1CCN(c2ccc3nc(-c4c(N)c5c(F)cccc5[nH]c4=O)[nH]c3c2)CC1 | patients, plasma | oral, 300 mg daily 5 days on 2 off, day 19, AUC 0-24 h maximum, added: gemcitabine and capecitabine | 4260 ng·h/mL
Nc1nc(NC2CC2)c2ncn([C@H]3C=C[C@@H](CO)C3)c2n1 | HIV-infected children and adolescents, Tanner stage 1-2, plasma | oral, 8 mg/kg, 0 to 8 h | 8000 ng·h/mL
O=C(CCCCCCC(=O)Nc1ccccc1)NO | cancer patients, serum | oral, 400 mg, cycle 1 day 2, AUC 0-7 h, added: flavopiridol 30 to 30 mg/m^2 | 11.1 µM·h

Excerpt of the above:
SMILES | system | setting | AUC
Cc1cc(Nc2cc(N3CCN(C)CC3)nc(Sc3ccc(NC(=O)C4CC4)cc3)n2)[nH]n1 | patients, plasma | continuous intravenous infusion, 8 to 96 mg/m2/h, 24 h infusion, mean across doses | 6.4 to 167 µM·h
